Measured values pooled from the literature.
A part holds a random share of what one study measured. Positions count from the first letter of the parent shown.

Block 1
Target: Phosphate system positive regulatory protein PHO4, full length, GST-tagged (PHO4, Saccharomyces cerevisiae, UniProt P07270, residues 1-312)
Sequence of UniProt P07270 (whole entry, looked up): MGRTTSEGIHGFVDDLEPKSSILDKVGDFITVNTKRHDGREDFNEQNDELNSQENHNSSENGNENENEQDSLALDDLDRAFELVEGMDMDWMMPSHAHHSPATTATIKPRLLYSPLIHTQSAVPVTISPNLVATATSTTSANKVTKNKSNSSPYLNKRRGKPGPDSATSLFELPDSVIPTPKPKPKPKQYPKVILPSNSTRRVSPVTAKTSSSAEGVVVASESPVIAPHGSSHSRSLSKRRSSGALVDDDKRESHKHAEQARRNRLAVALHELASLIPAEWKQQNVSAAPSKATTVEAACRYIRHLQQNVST
Technique: competition protein-binding microarray
Molecule type: double-stranded DNA, one strand shown
Sample: in vitro
Concentration: 2 µM
Notes: whole 60-bp probe, lowest competitor level
With: Cbf1 competitor, 0.05 µM
Direction: higher = stronger binding
The fluorescence intensity of `TCATGCATCCATTGCCTCGTGTAACTGAAATCAAAGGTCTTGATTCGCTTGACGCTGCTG` is reported as 8720 a.u.
`AGCGTTGAAGACAAATTCGTGACTCGTTGGTCCTAAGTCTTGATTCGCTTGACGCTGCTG` gave a fluorescence intensity of 4290 a.u.
For `CCGGTTGACGGGGTTCGCGTGATTGTGCGATTCGTTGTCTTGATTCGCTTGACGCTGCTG`, the fluorescence intensity was 5720 a.u.
For `CAATCTTGGCGTTCACACGTGGGTATAAAAAGGCAAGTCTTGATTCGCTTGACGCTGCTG`, the fluorescence intensity was 16600 a.u.
With `CGTCCTAGTGATTTTCACGTGAACTCCATGAGGAAGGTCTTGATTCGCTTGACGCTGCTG` the fluorescence intensity was 9360 a.u.
`CATACCCAACCTTGGCACGTGTTTTAAGATATTTGTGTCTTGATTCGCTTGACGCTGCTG` has a fluorescence intensity of 19700 a.u.
For `AAAGCGGTAATTTTTCACGTGCATTCACATATCTATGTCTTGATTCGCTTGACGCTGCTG`, the fluorescence intensity was 13900 a.u.
The fluorescence intensity of `CTTTCCCGATCTTGCCCAGTGGGTGTAGCACATTTGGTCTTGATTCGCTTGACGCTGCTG` is reported as 4180 a.u.
For `TGCGCAACAACTTTTCACGTGAAGTTATGTCTAGAAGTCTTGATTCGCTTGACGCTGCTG`, the fluorescence intensity was 9120 a.u.
`AAATTACTAAGTTGAGCTGTGGGTGACGCCGTATGAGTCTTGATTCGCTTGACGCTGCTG` gave a fluorescence intensity of 3990 a.u.
The fluorescence intensity of `AGAGCGTTCGCGTTTCTCGTGCCGAGTGCTTTTAACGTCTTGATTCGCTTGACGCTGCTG` is reported as 7070 a.u.
`ATTCAATGTTCTCAGGACGTGCTAAAAGGAAACCCAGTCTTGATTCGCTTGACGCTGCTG` gave a fluorescence intensity of 7560 a.u.
`CTTCTGTAAATTTGGCCTGTGGGTGGACGCGCCCCGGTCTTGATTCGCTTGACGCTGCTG` gave a fluorescence intensity of 4340 a.u.

Block 2
Target: RING finger protein unkempt homolog, zinc fingers 1-6, GST-SBP tag (UNK, Homo sapiens, UniProt Q9C0B0, residues 30-357)
Technique: RNA Bind-n-Seq
Molecule type: RNA
Sample: in vitro
Concentration: not given
Notes: RNA with constant flanks, human and mouse sites, ends assumed
Reference: input RNA pool
Direction: higher = stronger binding
Target sequence (chain): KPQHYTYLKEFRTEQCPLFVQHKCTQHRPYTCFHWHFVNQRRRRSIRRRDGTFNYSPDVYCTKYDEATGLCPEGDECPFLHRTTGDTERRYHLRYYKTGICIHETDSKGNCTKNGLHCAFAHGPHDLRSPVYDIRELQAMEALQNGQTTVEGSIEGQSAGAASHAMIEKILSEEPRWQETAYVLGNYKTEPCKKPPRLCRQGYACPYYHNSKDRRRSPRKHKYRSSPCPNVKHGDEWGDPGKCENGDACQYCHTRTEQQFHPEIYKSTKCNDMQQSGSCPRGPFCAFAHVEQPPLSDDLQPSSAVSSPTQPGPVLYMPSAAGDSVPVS
`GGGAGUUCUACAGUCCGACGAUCUUGCUGUCUAUUUGUUCCCUUUUGACAGACUGCAACCCUGCGGAUCCUCUGGUUGGAAGCAUAGCCACUCAGUAUUUGACCAACAGAGCAGAACACGACAGGAUAGCCAGACAGUGGACCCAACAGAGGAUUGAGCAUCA` has a bound/input enrichment of 0.184 ratio.
`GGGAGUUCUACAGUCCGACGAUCGAAUCUAGCAGCUGGGACACUUCAUGAAGGGUUUAUGUAAGUUUCCUUCCUAUGACCCAGAUGGUCAGUUACUUUAAGUUUCCAAGAGUAAUGUUGAGUUGUAUGUGUGUGUGUGGGAGUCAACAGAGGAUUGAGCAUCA` has a bound/input enrichment of 0.507 ratio.
`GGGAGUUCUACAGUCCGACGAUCCUGGGGGCCGGCGCCGUGGCCUACGGUGUGCGCGAAUCUGUGUUCACCGUGGAAGGCGGGCACAGAGCCAUCUUCUUCAAUCGGAUCGGUGGAGUGCAGCAGGACACUAUCCUGGCCGAGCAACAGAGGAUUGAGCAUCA` gave a bound/input enrichment of 0.0854 ratio.
`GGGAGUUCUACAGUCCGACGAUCCAAAAAAUGGUGCCUCCGGAUGCUCCUUCUUCUGUGAGCACAGGCUCCCCUCAGCCCCCUAGCUUCACCUAUGCUCAGCAGAAGGAGAAGCCCCUAGUUCAAGAGAAGCAGCACCCACAGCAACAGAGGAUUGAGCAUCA` gave a bound/input enrichment of 0.354 ratio.
For `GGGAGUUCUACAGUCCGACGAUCUGAUUUUUACUGAUAAAUUCACAGGAGGAACUUUGUAGUCAAAAGUUCUGUGGCUACUGUUUUGCUUUGUUCUUUUUUGGCUUUUUUCUGUUUUGUUUUGUUUUUUGUUGUUUUUUUUUUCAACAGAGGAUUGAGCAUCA`, the bound/input enrichment was 0.798 ratio.
`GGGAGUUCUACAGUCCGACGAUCCUAGCUGAAAUAACCCUUGAUCCUCCUCCUAAUUGCAGUGCUGGGCCUAAAGGAGAUAACAUUUAUGAAUGGAGAUCAACUAUACUUGGUCCACCGGGUUCUGUAUAUGAAGGUGGUGUGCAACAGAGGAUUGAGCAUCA` gave a bound/input enrichment of 0.413 ratio.
`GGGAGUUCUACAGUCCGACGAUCGGUAUUUCAUUCAUCUUUUGCUGUUUCCGAAAUAAUGAUCACCCAGAAAUCACGUAUCGGCUGCGAAAUGAUAGCAACUUUGCGCUUCAGACCAUGGAACCAGCAUUGCCCAUGCCCCCUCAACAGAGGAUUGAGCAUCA` has a bound/input enrichment of 0.146 ratio.
With `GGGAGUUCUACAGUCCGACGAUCUACAAAGCUUUUCCAGCUGCAAAUGAACGAGAUGAAGUGUUUGAAAAAGAGCCUUUGUAUGGUGGGAUGCUAAUAGAGGAUUAUAUUUAUGAAUCUUUAGUAGAAGACACGUACAAUGGACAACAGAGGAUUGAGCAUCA` the bound/input enrichment was 0.279 ratio.
For `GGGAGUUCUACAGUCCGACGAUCGCUAUAUCUAGCAGUAUGGAAAUUGACCAAGGUGAAAAGAAUGAAGAUGAAACUUCUGCAGAUCUUGUAGAAACGAUUAAUGAAAAUGUUAUUGAAGAUAACAAAAGUGAGAAUAUCUUACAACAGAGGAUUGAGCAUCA`, the bound/input enrichment was 0.635 ratio.
`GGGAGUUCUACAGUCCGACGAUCACAGCUAUGUACAGCAUACGAAUCAUUUACUUCGUAACAAUAACAAAACCGCGUUUUCCCCCCCUAAUCUCCAUUAACGAAAAUGACCCAGACCUCAUAAACCCAAUCAAACGCCUAGCACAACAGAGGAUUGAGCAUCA` gave a bound/input enrichment of 1.77 ratio.
`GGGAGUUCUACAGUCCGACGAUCCCUGCGCCGCCUCCUCCCACCCUGAGCAGAGCCGCCGAGGAUGAUAAACACCCAGGACAGUAGUAUUUUGCCUUUGAGUAACUGUCCCCAGCUCCAGUGCUGCAGGCACAUUGUUCCAGGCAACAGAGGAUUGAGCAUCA` has a bound/input enrichment of 0.312 ratio.

Block 3
Target: CCND3, cyclin fold, Cln2 fusion (human)
Technique: yeast growth competition, sequencing
Sample: yeast
Notes: weak parent motif
Reference: not given
Direction: higher = stronger binding
Starting sequence: MASTL docking peptide (human); PMIAKNLMCELDE; partner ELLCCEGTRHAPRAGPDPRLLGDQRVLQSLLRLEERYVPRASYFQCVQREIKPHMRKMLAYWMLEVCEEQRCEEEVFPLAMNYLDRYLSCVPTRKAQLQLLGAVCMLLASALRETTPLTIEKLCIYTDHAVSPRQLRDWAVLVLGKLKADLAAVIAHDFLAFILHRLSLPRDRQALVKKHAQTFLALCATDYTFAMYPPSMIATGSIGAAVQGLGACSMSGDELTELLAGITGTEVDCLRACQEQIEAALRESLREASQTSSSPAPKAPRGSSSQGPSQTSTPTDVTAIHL
`E10R`: “normalised enrichment score” 0.359.
For `L7V`, “normalised enrichment score” read -0.489.
Under “normalised enrichment score”, `K5Y` is recorded as -0.217.
`K5L`: “normalised enrichment score” -0.144.
`E10H`: “normalised enrichment score” 0.0898.
Under “normalised enrichment score”, `A4K` is recorded as 0.161.
For `N6I`, “normalised enrichment score” read 0.0487.
Under “normalised enrichment score”, `E10F` is recorded as -0.174.
`N6M`: “normalised enrichment score” 0.0964.

Further values, each from its own experiment
`PhoQ, residues 284 288 289 292 302 303 TASMAF` has a fold induction of 20.3 (PhoP, residues 12 14 15 18 19 IQFRS (Escherichia coli, UniProt P23836); Sort-seq, item: YFP reporter; E. coli; PhoQ-PhoP variant library, with: 10 µM Mg2+; reference: high Mg2+ state, higher = stronger signaling).
